Experimental data collected from several papers.
Parts stem from different laboratories: compare values within a part only. Substitutions count along the parent as printed.

Series 1
Target: Histone acetyltransferase KAT6A, winged helix 1, GST fusion (KAT6A, Homo sapiens, UniProt Q92794, residues 1-85)
Technique: protein binding microarray
Form: double-stranded DNA, one strand shown
Medium: in vitro
Tested at: not given
Setting: 8-mer, flanks averaged, mean of 2 arrays, mostly near background
Relative to: not given
Direction: higher = stronger binding
Quantity: E-score
Target sequence (chain): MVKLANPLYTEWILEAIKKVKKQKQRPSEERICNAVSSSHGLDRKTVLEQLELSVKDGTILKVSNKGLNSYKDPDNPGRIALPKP
GTTAATCA: -0.126
GCATCCAC: 0.0709
CCATCCTC: -0.0444
ACTTGAGC: -0.203
AAGTCACG: 0.0319
ATTACGAC: -0.0835
GTTCGGAA: -0.005
AGGGCACG: -0.0294
GACCTAAC: -0.0863
AGTCACAA: -0.239
ACAACAGT: -0.213
AGCAACGG: 0.183
TACGCTCA: 0.067

Series 2
Target: CCND2, cyclin fold, Cln2 fusion (human)
Technique: yeast growth competition, sequencing
Medium: yeast
Setting: weak parent motif
Relative to: not given
Direction: higher = stronger binding
Quantity: normalised enrichment score
Parent: RRM2 docking peptide (human); SKTARRIFQEPTE
F8A: 0.404
T12A: 0.123
E10A: -0.131
E13A: 0.216
K2A: 0.388
T3A: 0.0247

Series 3
Target: Ras GTPase-activating protein-binding protein 1, RRM domain (G3BP1, Homo sapiens, UniProt Q13283)
Sequence of UniProt Q13283 (whole entry, looked up): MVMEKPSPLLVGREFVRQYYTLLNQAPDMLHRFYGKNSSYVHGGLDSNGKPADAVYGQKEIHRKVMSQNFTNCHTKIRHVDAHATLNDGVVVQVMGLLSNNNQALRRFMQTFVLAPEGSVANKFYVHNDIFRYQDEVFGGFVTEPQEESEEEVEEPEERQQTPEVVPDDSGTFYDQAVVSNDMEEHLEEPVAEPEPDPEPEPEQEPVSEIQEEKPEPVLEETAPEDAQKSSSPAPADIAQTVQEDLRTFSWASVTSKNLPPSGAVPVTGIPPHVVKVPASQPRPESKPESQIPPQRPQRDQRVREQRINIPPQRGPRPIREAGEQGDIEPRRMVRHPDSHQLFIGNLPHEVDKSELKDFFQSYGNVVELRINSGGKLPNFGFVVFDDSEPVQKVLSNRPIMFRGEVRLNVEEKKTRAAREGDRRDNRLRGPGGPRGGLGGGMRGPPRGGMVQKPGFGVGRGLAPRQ
Technique: RNA Bind-n-Seq
Form: RNA
Medium: in vitro
Tested at: 1 µM
Setting: whole 134-nt RNA, ends assumed
Together with: 150 mM KCl
Relative to: input library
Direction: higher = stronger binding
Quantity: log2 enrichment
Shared flanks, not repeated: GGGAGUUCUACAGUCCGACGAUC … UGGAAUUCUCGGGUGUCAAGG
CACAGACAACACGCACCCACACAGACACAGAGGGAAGGGGUUGGGAUGGGGACAGGGUGCACAGCAGGGUGGGGUAGGACCCCAGCCCCU: -0.339
CACAGACAACACGCACCCACACAGACACAGAGGGAAGGGGUUGGGAUGGGGACAGGGUGCACAGCAGGGCGGGGUAUGACCCCAGCCCCU: -0.266
CAAGUCCUGUGCUACACAUCGUAUGUACCGAAUCGGGGCCCGGCCCGGGCCCGGGGAAAGUAUUAUGUUACGCCGUUCGGAUCUGCACUU: -0.582
CGGUCAGACUUUGUGUUACAUAAAUUAACACUGUUCUCAGGUAAUGAGAGAUCCAAACACCAAGCGCUCCAGGGGCUUUGGGUUUGUCAC: -0.187
CCUGUGCUACACAUCGUAUGUACCGAAUCGGGAAAAAAAGGAAAAAAAGGGGAAAAAAAGGAAAGUAUUAUGUUACGCCGUUCGGAUCUG: 0.0209
UCCUCAAGUCCUGUGCUACACAUCGUAUGUACCGAAUCGGGCGGGCGGGCGGAAAGUAUUAUGUUACGCCGUUCGGAUCUGCACUUCCAG: 0.425
AGUCCUGUGCUACACAUCGUAUGUACCGAAUCGGGGAGGGGAGGGGAAAAAAAGGGGAAAGUAUUAUGUUACGCCGUUCGGAUCUGCACU: 0.763
CACAGACAACACGCACCCACACAGACACAGAGGGAAGGCGUUGGGAUGGGGACAGGGUGCACAGCAGGGCGGGGUAGGACCCCAGCCCCU: -0.181
UCAAGUCCUGUGCUACACAUCGUAUGUACCGAAUCGGAAAGGAAAGGAAAAAGGAAAGUAUUAUGUUACGCCGUUCGGAUCUGCACUUCC: -0.119
UAACUUUAGAGGAGGAUCUGAUGGAUAUGGCAGUGGACGUUGAUUUGGGGAUGGCUAUAAUGGGUAUGGAGGAGGACCUGGAGGUGGCAA: -0.241
GCAGGAAGUAAAAACAAAGGGAAAUGCUUCGGAUAGUGGCAGGGGUGGGGGUUGCUAAGGAAAGGGUGGGAUGGGAGUGGGUAAAGAGUU: 1.41

Further values, each from its own experiment
PhoQ, residues 284 288 289 292 302 303 TTCLQL  fold induction (PhoP, residues 12 14 15 18 19 SYFRT (Escherichia coli, UniProt P23836); Sort-seq, item: YFP reporter; E. coli; PhoQ-PhoP variant library, together with: 10 µM Mg2+; relative to: high Mg2+ state, higher = stronger signaling): 0.442

For quick reference, copied from above (series 1):
GTTAATCA: -0.126
GCATCCAC: 0.0709
